# Assay results gathered from unrelated publications.
# “And” joins repeats or separate records; there may be more than shown. Numbers after ± are the reported error.
# sdiA: Regulatory protein SdiA (sdiA, Escherichia coli, UniProt P07026)
# KEAP1: Kelch-like ECH-associated protein 1 (KEAP1, Homo sapiens, UniProt Q14145)
# Uncharacterized hydrolase SAUSA300_2518: Uncharacterized hydrolase SAUSA300_2518 (Staphylococcus aureus, UniProt Q2FDS6)
# lasR: Transcriptional activator protein LasR (lasR, Pseudomonas aeruginosa, UniProt P25084)
# Oprm1: Mu-type opioid receptor (Oprm1, Rattus norvegicus, UniProt P33535)
SMILES,target,test,system,setting,how to read,endpoint,result
CCCCCCC(=O)N[C@H]1CCSC1=O,sdiA,,,,,Emax,97%
O=C(N1CCCCC1)n1ccnn1,"Pnpla8 (Mus musculus, UniProt Q8K1N1)","enzyme activity, inhibitor, competitive ABPP-SILAC",mouse T-cells,"concentration not given, 4 h, treated in situ",baseline: DMSO,activity ratio,2.11
CC(C)[C@H]1NC(=O)C[C@H]2/C=C/CCSSC[C@@H](NC1=O)C(=O)N[C@H](Cc1cccc3ccccc13)C(=O)NCC(=O)O2,"MAP3K8 (Homo sapiens, UniProt P41279)","enzyme activity, inhibitor",,10 µM,,inhibition,9.8%
COc1ccccc1-c1n[nH]c2nc(N[C@H]3CC[C@H](NS(=O)(=O)CC(C)C)CC3)ncc12,"cdc2-related kinase 12 (Leishmania donovani, UniProt A0A3S7WQK2)",Kinobeads competition,Leishmania donovani extract,10 µM,baseline: vehicle,remaining binding,4.73%
CC(C)Oc1ccc(B(O)O)c(F)n1,"CELA1 (Sus scrofa, UniProt P00772)",pNA substrate hydrolysis,,,baseline: Ki protease over Ki AmpC,selectivity ratio,637
C[C@H](NCc1ccc(-c2ccc(C(F)(F)F)cc2)cc1)C(N)=O,"CDK3 (Homo sapiens, UniProt Q00526)","cell-free assay, competition with immobilised ligand",,1 µM,,inhibition,3%
O=C1NC(=O)c2c1c1cc(F)c[n+]3c1c1c2c2cc(O)ccc2[n]1[Ru-4]312([N]=C=S)[S+]3CC[S+]1CC[S+]2CC3 (stereo not drawn),"FLT4 (Homo sapiens, UniProt P35916)",enzyme activity,,"100 nM, human enzyme, together with: 10 µM ATP",baseline: untreated,remaining activity,42%
C[C@@H](NC(=O)[C@@H](N)Cc1ccc(O)cc1)C(=O)NCC(=O)N(C)[C@@H](Cc1ccccc1)C(=O)NCCO,human mu opioid receptor,"β-arrestin-2 recruitment, agonist, cell-based",,,,Emax,102.7 ± 0.2%
CC(C)[C@@H]1NC(=O)[C@H](CC(N)=O)NC(=O)CNC(=O)[C@H](CC(N)=O)NC(=O)[C@H](C)NC(=O)[C@H](CC(=O)O)NC(=O)[C@H]([C@@H](C)O)NC(=O)[C@H](CCC(=O)O)NC(=O)CNC(=O)[C@H]([C@@H](C)O)NC(=O)[C@H](CCC(=O)O)NC(=O)[C@H](CCC(=O)O)NC(=O)[C@H](CC(=O)O)NC1=O,KEAP1,"Keap1-Nrf2 binding, inhibitor, competitive FP",,"0.3906 µM, 30 min, together with: Nrf2 peptide probe",lower = stronger inhibition,fluorescence polarization,0.383 a.u. and 0.341 a.u.
CN(C)CCCSC(=S)N1CCN(C(=O)/C=C/c2coc3ccccc3c2=O)CC1,"Nucleoprotein (N, Tomato spotted wilt virus, UniProt P25999, Y184A)","binding, microscale thermophoresis",,125 µM,dose series,MST response,849 a.u.
CC(C)CC(O)(CC(C)C)c1cn(C(=O)N2CCCC2)nn1,"Protein ABHD13 (Abhd13, Mus musculus, UniProt Q80UX8)","probe labelling, inhibitor, competitive ABPP-SILAC, measured: Abhd13",mouse T cells,"concentration not given, 4 h, in situ, protein level","baseline: treated over DMSO, lower = more inhibition",SILAC ratio,1.29
O=C(N[C@@H]1c2ccccc2C[C@H]1N1CCCC1)c1ccc(-c2ccnc3[nH]ccc23)nc1,"PRKACB (Homo sapiens, UniProt P22694)","binding, competition with immobilised ligand",,3 µM,,remaining binding,2.4%
O=S(=O)(F)c1cccc2c1OCC2,Uncharacterized hydrolase SAUSA300_2518,"enzyme activity, inhibitor, fluorogenic substrate",,0.01 µM,,remaining activity,110%
CCOC(=O)[C@@H]1Cc2c(cc([N+](=O)[O-])cc2[N+](=O)[O-])[C@H](O)[C@]12C(=O)Nc1ccc(Br)cc12,"PIM1 (Homo sapiens, UniProt P11309)","binding, competition with immobilised ligand",,0.1 µM,,remaining binding,41%
Cc1ccc2oc(=O)cc(CN3CCCCC3)c2c1,"ADRA1B (Homo sapiens, UniProt P35368)","intracellular Ca2+ mobilization, agonist",COS-7,500 µM,baseline: 3 µM ionomycin,agonist activity,6.47 ± 1.56%
CCCCCCCCCCCCn1nnc(CC(=O)O)n1,lasR,"plasI-LVAgfp reporter, antagonist",,,baseline: pump-active over pump-mutant,IC50 ratio,23
CCn1nc(Cl)c2c1-c1cnc(N)c(c1)O[C@H](C)c1cc(F)ccc1-c1nn(C)cc1C2,"DSTYK (Homo sapiens, UniProt Q6XUX3)","kinase activity, inhibitor",,,baseline: IC50 DSTYK over IC50 ALK,selectivity ratio,88 fold
CCNC(=S)NN=Cc1c2ccccc2cc2ccccc12.Cc1ccc(C(C)C)cc1.[Cl-].[Cl-].[Ru+2],"Albumin (ALB, Homo sapiens, UniProt P02768)","binding, van't Hoff, Scatchard",,concentration not given,,entropy change (ΔS°),239 J/mol/K
O=C(Nc1ccncc1)c1ccccc1OS(=O)(=O)F,Uncharacterized hydrolase SAUSA300_2518,"enzyme activity, inhibitor, fluorogenic substrate",,0.5 µM,,remaining activity,69.8% and 71% and 73.3%
CN(C)[C@H]1C[C@@]23CC[C@@]4(O2)C(=CC[C@]2(C)[C@@H](c5ccc6ccncc6c5)CC[C@H]24)C=C3[C@@H](O)[C@@H]1O,"RAF1 (Homo sapiens, UniProt P04049)","ATP probe labelling, inhibitor, KiNativ profiling",,0.1 µM,,inhibition,-21.5%
CCCCCCCCCC(=O)NC1CCCC1,lasR,"reporter gene, agonist",Escherichia coli JLD271,"10 µM, pSC11 and pJN105L plasmids",baseline: OdDHL at same concentration,agonist activity,20%
CC(=O)N[C@@H](CCC(N)=O)C(=O)N[C@@H](CC1CCCCC1)C(=O)N[C@@H](CNC(=O)CCl)C(=O)N[C@@H](CC(C)C)C(=O)N[C@@H](Cc1ccccc1)C(=O)O,"Beta sliding clamp (Escherichia coli, UniProt P0A988, H175G)",isothermal titration calorimetry,,25 °C,,ΔH,-9.6 kcal/mol
N[C@H](C(=O)N1CCCC1)C1CCN(c2nccc3c(-c4ncc(Cl)cc4Cl)cccc23)CC1,"PADI4 (Homo sapiens, UniProt Q9UM07)",enzyme activity,,"0.0983 µM, together with: Ca2+ 0.25 mM",,kcat,0.236 s⁻¹ and 0.224 s⁻¹
CCCC[C@H]1CNCCN1C[C@@H]1CCCN1C[C@@H](Cc1ccc2ccccc2c1)N1CCN(CCC23CC4CC(CC(C4)C2)C3)[C@H](Cc2ccc(O)cc2)C1,Oprm1,radioligand binding,rat brain membranes,"500 nM, pH 7.5, 25 °C, together with: 0.87 nM [3H]DAMGO",,remaining binding,93.2 ± 6.67%
O=C(Nc1ccccc1NC(=O)c1cccc(Cl)c1)c1cccc(Cl)c1,lasR,"reporter gene, antagonist",,,baseline: IC50 PAO-JP2 over E. coli JLD271,potency ratio,1
COc1ccc2nc3cc(Cl)ccc3c(Nc3cc(C(C)C)c(O)cc3C)c2c1,"Tumor susceptibility gene 101 protein (Homo sapiens, UniProt Q99816)",thermal stability,,800 µM,,ΔTm,8.1 °C
CS(C)(=O)=Nc1ccc(-c2ccc(-c3nc4cc(O[C@@H]5CO[C@H]6[C@@H]5OC[C@H]6O)[nH]c4cc3F)cc2)cc1,"STK4 (Homo sapiens, UniProt Q13043)","enzyme activity, inhibitor",,10 µM,,inhibition,40%
Oc1ccc(C[C@@H]2CN([C@@H](CC3CCCCC3)CN3CCC[C@H]3CN3CCNC[C@@H]3Cc3ccc4ccccc4c3)CCN2CCCC2CCCC2)cc1,Oprm1,radioligand binding,rat brain membranes,"500 nM, pH 7.5, 25 °C, together with: 0.87 nM [3H]DAMGO",,remaining binding,111 ± 6.06%
O=C(Cc1ccc(Cl)cc1)N[C@H]1CCOC1=O,sdiA,,,,,Emax,88.2%
C#CCCCCOc1ccc2c(c1)CCCN2C(=O)CCl,"CDK11B (Homo sapiens, UniProt P21127)",mass spectrometry profiling,H460 cell lysate,"100 µM over 10 µM, UniProt P21127",baseline: high over low concentration,reactivity ratio,1.17
CC(C)C[C@@H]1NC(=O)[C@H](C(C)C)NC(=O)[C@H](CCC(=O)O)NC(=O)CNC(=O)[C@H]([C@@H](C)O)NC(=O)[C@H](CCC(=O)O)NC(=O)[C@H](CCC(=O)O)NC(=O)[C@H](CC(=O)O)NC(=O)[C@H](C(C)C)NC(=O)[C@H]([C@@H](C)O)NC(=O)CNC(=O)[C@H](CC(=O)O)NC(=O)[C@@H]2CCCN2C1=O,KEAP1,"Keap1-Nrf2 binding, inhibitor, competitive FP",,"6.25 µM, 30 min, together with: Nrf2 peptide probe",lower = stronger inhibition,fluorescence polarization,0.0671 a.u. and 0.203 a.u.
COc1ccccc1-c1n[nH]c2nc(NC3CCN(C(=O)Cc4ccc(F)cc4F)CC3)ncc12,Leishmania donovani succinyl-CoA synthetase alpha (LINJ.25.2230),bead binding competition,Leishmania donovani extract,10 µM,baseline: vehicle,relative abundance,0.91
CCc1nnc(-c2c(OC)cc(-c3cnc4cc(-c5cnn(C)c5)ccn34)cc2OC)o1,"PTGS1 (Homo sapiens, UniProt P23219)",,,10 µM,,inhibition of specific binding,-48%

# Some of these lines once more:
SMILES,target,test,system,setting,how to read,endpoint,result
O=C(Cc1ccc(Cl)cc1)N[C@H]1CCOC1=O,sdiA,,,,,Emax,88.2%
CCNC(=S)NN=Cc1c2ccccc2cc2ccccc12.Cc1ccc(C(C)C)cc1.[Cl-].[Cl-].[Ru+2],"Albumin (ALB, Homo sapiens, UniProt P02768)","binding, van't Hoff, Scatchard",,concentration not given,,entropy change (ΔS°),239 J/mol/K
CC(=O)N[C@@H](CCC(N)=O)C(=O)N[C@@H](CC1CCCCC1)C(=O)N[C@@H](CNC(=O)CCl)C(=O)N[C@@H](CC(C)C)C(=O)N[C@@H](Cc1ccccc1)C(=O)O,"Beta sliding clamp (Escherichia coli, UniProt P0A988, H175G)",isothermal titration calorimetry,,25 °C,,ΔH,-9.6 kcal/mol
CC(C)Oc1ccc(B(O)O)c(F)n1,"CELA1 (Sus scrofa, UniProt P00772)",pNA substrate hydrolysis,,,baseline: Ki protease over Ki AmpC,selectivity ratio,637
COc1ccccc1-c1n[nH]c2nc(NC3CCN(C(=O)Cc4ccc(F)cc4F)CC3)ncc12,Leishmania donovani succinyl-CoA synthetase alpha (LINJ.25.2230),bead binding competition,Leishmania donovani extract,10 µM,baseline: vehicle,relative abundance,0.91
